Published values pooled from the literature.
Each line is one published result; not all experiments were run side by side. “And” joins repeats or separate records; there may be more than shown. Numbers after ± are the reported error.
Metallo-beta-lactamase type 2: Metallo-beta-lactamase type 2 (Serratia marcescens, UniProt P52699)
PDIA3: Protein disulfide-isomerase A3 (PDIA3, Homo sapiens, UniProt P30101)
UniProt P30101, sequence (whole entry, looked up): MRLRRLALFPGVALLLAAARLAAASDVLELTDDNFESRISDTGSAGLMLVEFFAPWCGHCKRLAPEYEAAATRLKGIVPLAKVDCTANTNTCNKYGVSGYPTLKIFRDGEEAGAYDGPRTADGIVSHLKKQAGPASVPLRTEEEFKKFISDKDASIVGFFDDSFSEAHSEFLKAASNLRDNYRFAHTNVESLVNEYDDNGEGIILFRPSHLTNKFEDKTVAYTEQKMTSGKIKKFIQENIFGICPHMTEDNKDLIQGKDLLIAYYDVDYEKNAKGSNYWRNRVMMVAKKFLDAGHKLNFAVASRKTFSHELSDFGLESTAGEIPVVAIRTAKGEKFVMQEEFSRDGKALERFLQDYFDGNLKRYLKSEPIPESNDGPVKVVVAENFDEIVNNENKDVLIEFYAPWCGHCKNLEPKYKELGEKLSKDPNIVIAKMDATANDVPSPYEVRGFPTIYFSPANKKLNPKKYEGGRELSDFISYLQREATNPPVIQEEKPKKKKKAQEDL
blaNDM-1: Metallo-beta-lactamase type 2 (blaNDM-1, Klebsiella pneumoniae, UniProt C7C422)
KLRK1 with MICA: NKG2-D type II integral membrane protein, with MICA (KLRK1, Homo sapiens, UniProt P26718)
UniProt P40261, sequence (whole entry, looked up): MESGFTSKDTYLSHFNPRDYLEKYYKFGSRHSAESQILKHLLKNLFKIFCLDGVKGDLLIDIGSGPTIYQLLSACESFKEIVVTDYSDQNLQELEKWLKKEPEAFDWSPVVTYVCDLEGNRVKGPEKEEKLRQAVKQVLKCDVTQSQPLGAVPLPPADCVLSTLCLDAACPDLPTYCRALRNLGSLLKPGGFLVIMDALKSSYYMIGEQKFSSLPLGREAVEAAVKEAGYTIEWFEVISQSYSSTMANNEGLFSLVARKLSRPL
UniProt P26718, sequence (whole entry, looked up): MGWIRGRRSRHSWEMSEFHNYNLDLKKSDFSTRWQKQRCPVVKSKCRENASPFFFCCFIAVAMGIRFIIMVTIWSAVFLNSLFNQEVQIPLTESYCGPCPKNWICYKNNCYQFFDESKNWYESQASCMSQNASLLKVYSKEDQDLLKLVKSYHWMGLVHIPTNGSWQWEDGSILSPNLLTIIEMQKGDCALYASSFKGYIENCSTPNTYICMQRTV
UniProt P01902, sequence (whole entry, unmodified, looked up): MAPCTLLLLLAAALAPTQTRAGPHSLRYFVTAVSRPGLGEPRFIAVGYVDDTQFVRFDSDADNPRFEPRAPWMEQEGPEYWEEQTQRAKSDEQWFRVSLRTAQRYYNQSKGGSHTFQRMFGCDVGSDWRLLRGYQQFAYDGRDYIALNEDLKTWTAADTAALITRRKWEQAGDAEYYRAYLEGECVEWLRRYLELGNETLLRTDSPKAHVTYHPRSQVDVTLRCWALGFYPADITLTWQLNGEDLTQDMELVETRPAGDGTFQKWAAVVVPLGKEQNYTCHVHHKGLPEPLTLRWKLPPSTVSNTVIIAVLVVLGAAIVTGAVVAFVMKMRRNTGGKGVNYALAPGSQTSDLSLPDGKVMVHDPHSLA
UniProt O15294, sequence (whole entry, looked up): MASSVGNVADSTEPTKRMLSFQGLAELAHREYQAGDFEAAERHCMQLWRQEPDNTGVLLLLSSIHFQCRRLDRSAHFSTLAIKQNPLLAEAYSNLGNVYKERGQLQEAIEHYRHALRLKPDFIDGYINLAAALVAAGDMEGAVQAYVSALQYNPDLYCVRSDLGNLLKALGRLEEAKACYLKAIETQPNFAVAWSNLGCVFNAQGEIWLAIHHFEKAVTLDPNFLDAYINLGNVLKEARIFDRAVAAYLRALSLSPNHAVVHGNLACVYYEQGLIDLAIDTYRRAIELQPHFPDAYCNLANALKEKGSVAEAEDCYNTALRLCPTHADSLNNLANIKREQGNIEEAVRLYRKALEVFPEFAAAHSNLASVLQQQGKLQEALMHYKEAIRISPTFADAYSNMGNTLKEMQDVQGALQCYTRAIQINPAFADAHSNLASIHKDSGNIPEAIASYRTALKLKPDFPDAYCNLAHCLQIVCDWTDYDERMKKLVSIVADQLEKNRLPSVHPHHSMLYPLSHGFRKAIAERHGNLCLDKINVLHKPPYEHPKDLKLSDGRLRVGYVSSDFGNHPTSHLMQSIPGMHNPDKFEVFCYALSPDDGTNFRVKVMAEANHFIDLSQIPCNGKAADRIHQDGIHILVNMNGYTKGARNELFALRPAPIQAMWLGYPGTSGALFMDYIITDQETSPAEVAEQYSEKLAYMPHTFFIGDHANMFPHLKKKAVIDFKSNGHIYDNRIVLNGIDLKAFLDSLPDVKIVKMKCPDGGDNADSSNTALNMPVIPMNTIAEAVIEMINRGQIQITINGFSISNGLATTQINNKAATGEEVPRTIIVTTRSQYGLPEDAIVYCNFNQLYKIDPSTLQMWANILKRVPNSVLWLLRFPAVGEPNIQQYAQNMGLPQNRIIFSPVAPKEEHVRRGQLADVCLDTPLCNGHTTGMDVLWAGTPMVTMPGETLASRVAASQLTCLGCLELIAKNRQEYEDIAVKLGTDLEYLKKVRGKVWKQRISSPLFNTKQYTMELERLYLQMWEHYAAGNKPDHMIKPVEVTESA
UniProt P47774, sequence (whole entry, looked up): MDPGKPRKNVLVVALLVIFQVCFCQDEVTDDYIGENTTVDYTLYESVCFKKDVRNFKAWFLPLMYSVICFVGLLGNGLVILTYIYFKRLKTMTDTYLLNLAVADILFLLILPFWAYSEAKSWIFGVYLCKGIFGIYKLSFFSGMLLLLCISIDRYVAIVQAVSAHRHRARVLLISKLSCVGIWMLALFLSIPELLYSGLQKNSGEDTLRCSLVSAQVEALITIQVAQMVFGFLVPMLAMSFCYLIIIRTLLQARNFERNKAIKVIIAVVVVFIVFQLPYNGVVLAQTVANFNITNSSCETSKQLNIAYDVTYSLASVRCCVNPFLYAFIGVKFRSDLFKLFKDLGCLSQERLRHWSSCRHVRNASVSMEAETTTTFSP
UniProt P41595, sequence (whole entry, looked up): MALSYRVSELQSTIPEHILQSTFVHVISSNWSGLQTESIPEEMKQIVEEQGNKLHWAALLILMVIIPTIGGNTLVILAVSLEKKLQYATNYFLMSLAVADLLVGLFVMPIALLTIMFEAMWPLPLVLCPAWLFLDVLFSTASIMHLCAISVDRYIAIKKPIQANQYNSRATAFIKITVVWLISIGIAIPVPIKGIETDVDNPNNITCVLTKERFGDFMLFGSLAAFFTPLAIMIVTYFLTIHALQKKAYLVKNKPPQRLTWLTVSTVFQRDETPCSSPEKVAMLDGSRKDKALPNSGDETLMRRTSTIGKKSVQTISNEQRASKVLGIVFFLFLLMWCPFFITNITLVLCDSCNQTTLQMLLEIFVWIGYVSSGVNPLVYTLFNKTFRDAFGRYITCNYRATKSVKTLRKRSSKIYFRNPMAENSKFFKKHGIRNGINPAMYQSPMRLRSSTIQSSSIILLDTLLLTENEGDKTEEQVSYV
UniProt Q08499, sequence (whole entry, looked up): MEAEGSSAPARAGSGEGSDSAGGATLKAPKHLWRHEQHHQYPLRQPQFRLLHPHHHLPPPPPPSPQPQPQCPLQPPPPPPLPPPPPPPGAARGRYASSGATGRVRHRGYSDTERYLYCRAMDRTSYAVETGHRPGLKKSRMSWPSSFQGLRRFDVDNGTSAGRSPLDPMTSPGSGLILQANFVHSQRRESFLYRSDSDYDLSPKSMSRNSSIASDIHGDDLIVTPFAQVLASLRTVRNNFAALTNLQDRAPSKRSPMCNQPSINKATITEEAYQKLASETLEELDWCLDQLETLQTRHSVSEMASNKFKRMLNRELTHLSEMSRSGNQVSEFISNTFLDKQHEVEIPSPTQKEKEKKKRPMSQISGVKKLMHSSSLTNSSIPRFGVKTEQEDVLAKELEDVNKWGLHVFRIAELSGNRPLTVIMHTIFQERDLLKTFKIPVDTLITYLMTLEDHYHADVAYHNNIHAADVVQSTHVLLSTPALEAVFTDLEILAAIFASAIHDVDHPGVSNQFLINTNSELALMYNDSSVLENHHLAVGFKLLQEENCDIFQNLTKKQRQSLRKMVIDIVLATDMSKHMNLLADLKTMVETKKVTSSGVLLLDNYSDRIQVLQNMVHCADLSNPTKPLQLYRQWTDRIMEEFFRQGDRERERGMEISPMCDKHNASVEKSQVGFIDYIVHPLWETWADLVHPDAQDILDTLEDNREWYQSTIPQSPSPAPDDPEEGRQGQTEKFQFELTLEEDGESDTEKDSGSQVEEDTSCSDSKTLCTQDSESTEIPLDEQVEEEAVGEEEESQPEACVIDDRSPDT
UniProt Q86TU7, sequence (whole entry, looked up): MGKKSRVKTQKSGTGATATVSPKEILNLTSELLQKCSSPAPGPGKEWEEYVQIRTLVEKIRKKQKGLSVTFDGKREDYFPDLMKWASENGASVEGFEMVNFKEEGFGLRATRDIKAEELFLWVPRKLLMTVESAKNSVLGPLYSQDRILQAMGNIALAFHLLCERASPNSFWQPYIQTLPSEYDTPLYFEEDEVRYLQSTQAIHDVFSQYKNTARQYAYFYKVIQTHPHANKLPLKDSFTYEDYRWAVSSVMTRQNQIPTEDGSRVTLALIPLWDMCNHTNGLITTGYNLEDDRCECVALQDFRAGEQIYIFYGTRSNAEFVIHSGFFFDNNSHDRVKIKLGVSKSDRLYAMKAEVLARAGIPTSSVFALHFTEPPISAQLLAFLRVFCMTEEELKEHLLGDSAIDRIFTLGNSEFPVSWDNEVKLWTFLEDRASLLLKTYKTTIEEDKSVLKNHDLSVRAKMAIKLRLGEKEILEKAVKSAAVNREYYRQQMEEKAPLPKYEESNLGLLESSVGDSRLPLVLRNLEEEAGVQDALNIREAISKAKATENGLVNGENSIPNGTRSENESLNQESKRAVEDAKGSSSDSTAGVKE
UniProt P00772, sequence (whole entry, looked up): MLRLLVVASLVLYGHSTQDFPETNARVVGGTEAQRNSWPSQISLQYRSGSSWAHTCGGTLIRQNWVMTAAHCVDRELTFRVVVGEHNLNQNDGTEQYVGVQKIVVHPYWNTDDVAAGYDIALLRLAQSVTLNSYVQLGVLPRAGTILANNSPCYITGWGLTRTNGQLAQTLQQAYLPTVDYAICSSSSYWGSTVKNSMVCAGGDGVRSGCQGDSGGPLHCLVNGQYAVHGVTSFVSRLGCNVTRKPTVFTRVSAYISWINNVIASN

`CC[C@@H]1C(=O)N(C)c2cnc(Oc3ccc(C(=O)NCCCC[C@H](NC(C)=O)C(=O)NCCOCCOCC(=O)NCCOCCOCC(=O)NCCOCCOCC(=O)NCCOCCOCC(=O)N4CCC[C@H]4C(=O)N[C@@H](CC(C)C)C(=O)N[C@@H](Cc4cncn4CCCCCCCCc4ccccc4)C(=O)N[C@@H](CO)C(=O)N[C@H](C(N)=O)[C@@H](C)OP(=O)(O)O)cc3OC)nc2N1CC(C)C` gave an IC50 of greater than 10 µM (PLK1 (Homo sapiens, UniProt P53350); enzyme activity, inhibitor, FRET).
`O=C(O)c1nc[nH]c1C(=O)Nc1ccccc1` gave an IC50 of 267 µM (Metallo-beta-lactamase type 2; inhibitor; 10 min preincubation, added: FC5 fluorogenic substrate).
`NC(=O)C1CN1S(=O)(=O)c1ccc(F)cc1F` (stereo not drawn) gave an IC50 of 25 µM (PDIA3; enzyme activity, inhibitor, absorbance; pH 7.6).
With `CC(C)C(=O)Nc1ccccc1-c1nn[nH]n1` the IC50 was greater than 100 µM (blaNDM-1; enzyme activity, inhibitor, fluorescence; with preincubation).
`C/C=C1/CN2CCc3c([nH]c4ccccc34)[C@@H]2C[C@@H]1/C(=C\OC)C(=O)OC` has an IC50 of 0.191 µM (HTR2B (Homo sapiens, UniProt P41595); ligand displacement, radioligand; cell membranes).
The IC50 of `CC[C@H](C)[C@H](NC(=O)[C@H](C)NC(=O)[C@H](Cc1ccc(O)cc1)NC(=O)[C@H](CCC(N)=O)NC(=O)[C@@H](NC(=O)[C@H](CC(C)C)NC(=O)[C@H](Cc1ccc(O)cc1)NC(=O)[C@@H]1CCCN1)[C@@H](C)O)C(=O)O` is reported as greater than 70 µM (H-2 class I histocompatibility antigen, K-D alpha chain, 29 (H2-K1, Mus musculus, UniProt P01902); binding, competitor, radioligand competition; purified MHC, mutant peptide, added: radiolabeled standard peptide).
`CN1C(=O)[C@H](Cc2ccccc2)N(C)C(=O)[C@@H]2[C@H]1CCN2Cc1cc(Cl)cc(Cl)c1` has an IC50 of 10.2 µM (KLRK1 with MICA; ligand binding, inhibitor, TR-FRET; HEK293 expressing NKG2D and DAP10; added: MICA-Alexa647).
For `Cn1nnc(-c2cccc(NC(=O)CCS)c2)n1`, the IC50 was 1.18 µM (Metallo-beta-lactamase type 2; inhibitor; 10 min preincubation, added: FC5 substrate).
`O=c1oc2cc(O)c(O)cc2c2oc3cc4c(cc3c12)OCO4` gave an IC50 of 63.8 µM (Genome polyprotein, NS5B polymerase (Hepatitis C virus genotype 1b, UniProt P26663); NS5B RNA polymerase activity, inhibitor; hepatitis C virus, genotype 1b; added: poly(rA)/U12).
`C[C@H]1NC(=O)C[C@@H](C(=O)O)NC(=O)C[C@@H](C(=O)O)NC(=O)[C@H](Cc2ccccc2)N(C)C(=O)[C@H](Cc2c[nH]cn2)NC1=O` gave an IC50 of greater than 1000 µM (Endochitinase B1 (Aspergillus fumigatus, UniProt Q873X9); enzyme activity, inhibitor, fluorometric; 10 min, pH 5.5, 37 °C, added: 20 µM 4-MU-chitobiose).
With `COC1CC(=O)N(C)C=CCCCC(=O)N(C)C(C(C)C)C(=O)N(C)C(CC(C)C)C(=O)OC(C(C)C)CC(C)C1` (stereo not drawn) the IC50 was 20 µM (Neuropeptide S receptor, isoform B (NPSR1, Homo sapiens, UniProt Q6W5P4); β-arrestin recruitment, antagonist; U2OS; 30 min).
`CCn1nc(-c2ccccc2)nc2c(=O)n(C)c(=O)nc1-2` gave an IC50 of 11.3 µM (TPR (Trypanosoma brucei brucei, UniProt P39051); inhibitor, DTNB-coupled colourimetric; added: substrate at Km).
`Cc1cccc([C@H](NC(=O)c2cnccc2-c2ccc(C(F)(F)F)cc2)C(=O)N(C)C)c1` gave an IC50 of 0.7 ± 0.3 µM (KLRK1 with MICA; ligand binding, inhibitor, TR-FRET; HEK293 expressing NKG2D and DAP10; added: MICA-Alexa647).
`C[N+](C)(C)CCSS(C)(=O)=O` gave an IC50 of 220 µM (arsenite methyltransferase (Chlamydomonas reinhardtii, UniProt K0BVM7)).
`COc1ccccc1C(NS(=O)(=O)c1cc2ccc(O)nc2cc1Cl)C(=O)N(CC(=O)NCCn1cc(COCCOCCNc2cccc3c2C(=O)N(C2CCC(=O)NC2=O)C3=O)nn1)Cc1cccs1` (mixture of isomers) gave an IC50 of 0.77 µM (OGT (Homo sapiens, UniProt O15294); enzyme activity, inhibitor, fluorescence).
`NC[C@@H]1O[C@H](O[C@H]2[C@@H](O)[C@H](O[C@@H]3[C@@H](O)[C@H](N)C[C@H](N)[C@H]3O[C@H]3O[C@H](CN)[C@@H](O)[C@H](O)[C@H]3N)O[C@@H]2Cn2cc(COCCCCCCCCCCCCOCc3cn(C[C@H]4O[C@@H](O[C@@H]5[C@@H](O)[C@H](N)C[C@H](N)[C@H]5O[C@H]5O[C@H](CN)[C@@H](O)[C@H](O)[C@H]5N)[C@H](O)[C@@H]4O[C@H]4O[C@@H](CN)[C@@H](O)[C@H](O)[C@H]4N)nn3)nn2)[C@H](N)[C@@H](O)[C@@H]1O` gave an IC50 of 0.067 ± 0.009 µM (HIV-1 TAR RNA; Tat peptide binding, FRET competition; pH 7.4, 25 °C).
For `O=P(O)(O)OC[C@H]1O[C@@](O)(C(F)(F)F)[C@H](O)[C@@H](O)[C@@H]1O`, the IC50 was 345 ± 55 µM (algC (Pseudomonas aeruginosa, UniProt P26276); enzyme activity, inhibitor; pH 7.4, 25 °C, added: alpha-glucose 1-phosphate 20 µM).
With `CC(C)C[C@H](NC(=O)[C@H](C)NC(=O)[C@H](CC(N)=O)NC(=O)[C@H](CCC(=O)O)NC(=O)[C@@H](N)CCCCN)C(=O)N[C@@H](CC(C)C)C(=O)N[C@@H](CCCNC(=N)N)C(=O)N[C@@H](Cc1ccc(O)cc1)C(=O)N[C@@H](CC(C)C)C(=O)N[C@@H](CC(C)C)C(=O)N[C@@H](CC(=O)O)C(=O)N[C@@H](CCCCN)C(=O)N[C@@H](CC(=O)O)C(N)=O` the IC50 was greater than 100 µM (Vitamin D3 receptor (VDR, Homo sapiens, UniProt P11473); reporter gene, antagonist, dual-luciferase; MCF7; 16 h, added: calcitriol 30 nM).
With `CC(C)C[C@H](NC(=O)[C@H](C)NC(=O)[C@H](CO)NC(=O)[C@H](CC(=O)O)NC(=O)[C@H](CCC(=O)O)NC(=O)[C@@H]1CCCN1C(=O)[C@H](CC(=O)O)NC(=O)[C@H](CCC(=O)O)NC(=O)[C@@H]1CCCN1C(=O)[C@@H](N)C(C)C)C(=O)N[C@@H](CC(C)C)C(=O)N[C@@H](CCC(=O)O)C(=O)O` the IC50 was greater than 5 µM (HLA-DRA/HLA-DRB3 (Homo sapiens, UniProt P01903+P79483); binding, competition binding; purified HLA-DR; 48 h, added: radiolabelled probe peptide 0.1-1 nM).
The IC50 of `CC(=O)N[C@@H](CCCNC(=N)N)C(=O)N[C@@H](Cc1ccc(O)cc1)C(=O)N[C@H]1CCCNC(=N)NC(=O)NCCCCNC(=O)[C@H](Cc2ccc(O)cc2)NC(=O)[C@H](CCCNC(=N)N)NC(=O)[C@H](CC(C)C)NC1=O` is reported as 3.94 ± 0.66 µM (NPY4R (Homo sapiens, UniProt P50391); β-arrestin 2 recruitment, antagonist; HEK293T; added: 3 nM human pancreatic polypeptide).
`CC[C@H](C)[C@@H]1NC(=O)[C@H](CCCNC(=N)N)NC(=O)[C@H](CCCNC(=N)N)NC(=O)[C@H](C)NC(=O)[C@H](Cc2ccc(O)cc2)NC(=O)CSC[C@@H](C(=O)NCC(N)=O)NC(=O)[C@H]([C@@H](C)CC)NC(=O)[C@H](C(C)C)NC(=O)[C@H](C(C)C)NC(=O)[C@H](CC(C)C)NC(=O)[C@H](CCCNC(=N)N)NC(=O)[C@H](CC(=O)O)NC(=O)[C@H](CCCNC(=N)N)NC(=O)[C@H](Cc2ccccc2)NC(=O)[C@H](C(C)C)NC(=O)[C@H](CC(C)C)NC(=O)[C@H]([C@@H](C)CC)NC1=O` has an IC50 of 4.96 µM and ~5 µM (NNMT (Homo sapiens, UniProt P40261); enzyme activity, inhibitor, mass spectrometry).
`NC(=O)C1CN1S(=O)(=O)c1ccccc1` (stereo not drawn) has an IC50 of 9.3 µM (PDIA3; enzyme activity, inhibitor, absorbance; pH 7.6).
For `N[C@@H](CN[C@@H](CN[C@@H](CC(=O)O)C(=O)O)C(=O)O)C(=O)O`, the IC50 was 12800 ± 722 µM (blaNDM-1; enzyme activity, inhibitor; Zn2+-depleted enzyme).
`C/C=C1\NC(=O)[C@H](C)NC(=O)[C@@H](NC(=O)[C@@H](Cc2ccc(O)cc2)NC(=O)[C@@H](NC(=O)/C(C)=C/C)C(C)C)[C@@H](C)OC(=O)[C@H](CCCc2ccc(O)cc2)NC(=O)[C@@H](CCC(=O)O)NC1=O` has an IC50 of 0.53 ± 0.19 µM (CELA1 (Sus scrofa, UniProt P00772); inhibitor).
`C[C@H](CS)C(=O)Nc1ccccc1-c1nnn(C)n1` has an IC50 of greater than 100 µM (blaNDM-1; enzyme activity, inhibitor, fluorescence; with preincubation).
The IC50 of `CC(C)(C)c1ccc(NC(=O)NCCC[C@H](CNCc2ccccc2)C[C@H]2O[C@@H](n3cnc4c(N)ncnc43)[C@H](O)[C@@H]2O)cc1` is reported as greater than 50 µM (BCDIN3D (Homo sapiens, UniProt Q7Z5W3); enzyme activity, inhibitor, radiometric).
The IC50 of `COc1c(/C=C/C(=O)c2ccc(O)cc2)ccc(O)c1O` is reported as 5.73 µM (PDE4D (Homo sapiens, UniProt Q08499); enzyme activity, inhibitor, radiometric).
The IC50 of `CC[N+](CC)(CC)CC` is reported as 110 ± 20 µM (Potassium channel protein kcv (A250R, Paramecium bursaria Chlorella virus 1, UniProt Q84568)).
With `CCN(Cc1ccccc1)C(=O)CCc1nc(CN2CCN(C(=O)Cc3ccc(OC)c(OC)c3)CC2)no1` the IC50 was 0.16 ± 0.05 µM (Sodium channel protein type 11 subunit alpha (Scn11a, Rattus norvegicus, UniProt O88457); ion current, inhibitor, whole-cell patch clamp; rat DRG neurons).
`CC[C@H](C)[C@H](NC(=O)[C@H](CC(C)C)NC(=O)[C@@H]1CCCN1C(=O)[C@H](CO)NC(=O)[C@@H](N)CC(C)C)C(=O)N[C@@H](Cc1ccccc1)C(=O)N[C@H](C(=O)N[C@H](C(=O)N[C@H](C(=O)N1CCC[C@H]1C(=O)N[C@@H](CC(=O)O)C(=O)N[C@H](C(=O)O)[C@@H](C)O)[C@@H](C)O)[C@@H](C)O)C(C)C` has an IC50 of 256 ± 36.7 µM (C-C chemokine receptor type 7, with CCL21 (Ccr7, Mus musculus, UniProt P47774); ligand binding, inhibitor, flow cytometry; B16 expressing CCR7; 4 °C, added: CCL21).
`Cc1cccc(-c2nc(Nc3ccncn3)c3sccc3n2)n1` has an IC50 of 31 µM (CYP2C19 (Homo sapiens, UniProt P33261); inhibitor).
`N[C@@H](Cc1ccc(O)cc1)C(=O)N1Cc2ccccc2C[C@H]1C(=O)N[C@@H](Cc1ccccc1)C(=O)N[C@@H](Cc1ccccc1)C(=O)N[C@@H](CC(=O)O)C(=O)NCCOCCOCCNC(=O)CCCC[C@@H]1SC[C@@H]2NC(=O)N[C@@H]21` has an IC50 of 0.0248 µM (Oprd1 (Mus musculus, UniProt P32300); ligand displacement, radioligand).
`Nc1ncnc2c1ncn2[C@@H]1O[C@H](CSCCNC(=O)NCC2CCCCC2)[C@@H](O)[C@H]1O` has an IC50 of greater than 50 µM (Actin-histidine N-methyltransferase (SETD3, Homo sapiens, UniProt Q86TU7); enzyme activity, inhibitor, radiometric).

A few entries again:
`COc1ccccc1C(NS(=O)(=O)c1cc2ccc(O)nc2cc1Cl)C(=O)N(CC(=O)NCCn1cc(COCCOCCNc2cccc3c2C(=O)N(C2CCC(=O)NC2=O)C3=O)nn1)Cc1cccs1` (mixture of isomers) gave an IC50 of 0.77 µM (OGT (Homo sapiens, UniProt O15294); enzyme activity, inhibitor, fluorescence).
`O=c1oc2cc(O)c(O)cc2c2oc3cc4c(cc3c12)OCO4` gave an IC50 of 63.8 µM (Genome polyprotein, NS5B polymerase (Hepatitis C virus genotype 1b, UniProt P26663); NS5B RNA polymerase activity, inhibitor; hepatitis C virus, genotype 1b; added: poly(rA)/U12).
For `Cn1nnc(-c2cccc(NC(=O)CCS)c2)n1`, the IC50 was 1.18 µM (Metallo-beta-lactamase type 2; inhibitor; 10 min preincubation, added: FC5 substrate).
`Nc1ncnc2c1ncn2[C@@H]1O[C@H](CSCCNC(=O)NCC2CCCCC2)[C@@H](O)[C@H]1O` has an IC50 of greater than 50 µM (Actin-histidine N-methyltransferase (SETD3, Homo sapiens, UniProt Q86TU7); enzyme activity, inhibitor, radiometric).
